Earlier results that unrelated publications cite.
Each line is one published result; not all experiments were run side by side. ± marks the error that the study gave.
Sequence of UniProt Q16513 (whole entry, looked up): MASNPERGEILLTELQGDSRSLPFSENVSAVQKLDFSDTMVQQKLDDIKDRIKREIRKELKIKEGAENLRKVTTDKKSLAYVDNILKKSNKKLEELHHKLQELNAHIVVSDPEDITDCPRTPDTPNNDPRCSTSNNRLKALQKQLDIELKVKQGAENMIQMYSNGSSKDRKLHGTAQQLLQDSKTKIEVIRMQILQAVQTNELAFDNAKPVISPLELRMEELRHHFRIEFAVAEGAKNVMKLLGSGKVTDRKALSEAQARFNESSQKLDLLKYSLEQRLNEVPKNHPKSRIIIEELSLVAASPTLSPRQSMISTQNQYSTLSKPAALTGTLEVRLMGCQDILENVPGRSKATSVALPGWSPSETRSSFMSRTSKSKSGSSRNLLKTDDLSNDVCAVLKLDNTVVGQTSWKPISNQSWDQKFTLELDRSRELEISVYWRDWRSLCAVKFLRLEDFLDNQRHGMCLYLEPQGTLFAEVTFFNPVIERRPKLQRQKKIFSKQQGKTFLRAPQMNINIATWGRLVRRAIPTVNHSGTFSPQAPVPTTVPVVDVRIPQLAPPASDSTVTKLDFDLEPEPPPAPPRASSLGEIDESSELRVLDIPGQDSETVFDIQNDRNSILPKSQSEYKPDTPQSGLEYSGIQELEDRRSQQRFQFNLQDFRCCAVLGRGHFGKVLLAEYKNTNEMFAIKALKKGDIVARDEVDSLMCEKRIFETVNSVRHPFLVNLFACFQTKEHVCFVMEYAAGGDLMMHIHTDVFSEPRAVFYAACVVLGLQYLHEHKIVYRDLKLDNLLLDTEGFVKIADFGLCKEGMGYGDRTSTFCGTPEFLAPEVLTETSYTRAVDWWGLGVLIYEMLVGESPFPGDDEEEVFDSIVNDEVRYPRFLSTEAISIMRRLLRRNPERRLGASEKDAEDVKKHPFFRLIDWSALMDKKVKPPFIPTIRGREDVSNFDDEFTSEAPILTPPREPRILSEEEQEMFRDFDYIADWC

SMILES = COCCc1ccc(OCC(O)CNC(C)C)cc1 (centres unmarked); system = human fasted; conditions = 100 mg multiple doses, day 5, mean; measurement = Cmax; result = 36 ng/mL
SMILES = C1=C/COCc2cc(ccc2OCCN2CCCC2)Nc2nccc(n2)-c2cccc(c2)COC/1; system = human; conditions = dose not given, together with: clarithromycin; how to read = baseline: without clarithromycin; measurement = Cmax increase; result = 30%
SMILES = C[C@@H](Oc1ccc(S(C)(=O)=O)cc1C(=O)N1C[C@@H]2C[C@]2(c2cc(C(F)(F)F)on2)C1)C(F)(F)F; system = human; conditions = 25 mg single dose, observed geometric mean, together with: itraconazole; how to read = baseline: with over without itraconazole; measurement = Cmax ratio; result = 1.16
SMILES = Cn1c(Cn2ccc(C(F)(F)F)c(Oc3cc(Cl)cc(C#N)c3)c2=O)n[nH]c1=O; system = human; conditions = dose not given, CYP3A4 inhibition, together with: ritonavir or ketoconazole; measurement = Cmax increase; result = 20 to 30%
SMILES = COc1cc2c(Oc3ccc4[nH]c(C)cc4c3F)ccnc2cc1OCC1(N)CC1; system = human; conditions = 10 mg single dose; measurement = Cmax; result = 5.78 ± 2.76 ng/mL
SMILES = C=CC(=O)N1CCC([C@@H]2CCNc3c(C(N)=O)c(-c4ccc(Oc5ccccc5)cc4)nn32)CC1; system = human patients; conditions = oral, 160 mg once daily, day 8; measurement = Cmax; result = 390 ± 231 ng/mL
SMILES = O=C1[C@H](CC[C@H](O)c2ccc(F)cc2)[C@@H](c2ccc(O)cc2)N1c1ccc(F)cc1; system = human, serum; conditions = dose not given, together with: rifampin, 600 mg, single dose; how to read = baseline: without rifampin; measurement = Cmax increase; result = 2.85 fold
SMILES = CC(C)NC(=O)COc1cccc(-c2nc(Nc3ccc4[nH]ncc4c3)c3ccccc3n2)c1; system = healthy human subjects; conditions = dose not given, together with: rifampin (strong CYP3A4 inducer); measurement = Cmax decrease; result = 59%
SMILES = CO[C@]1(C(=O)N[C@@H](C)c2ccc(-n3cc(F)cn3)nc2)CC[C@H](c2nc(C)cc(Nc3cc(C)[nH]n3)n2)CC1; system = healthy human; conditions = dose not given, together with: itraconazole multiple doses; how to read = baseline: compound alone; measurement = Cmax increase; result = 84%
SMILES = CCOc1c([C@H](C)n2nc(C)c3c(N)ncnc32)cc(Cl)c(F)c1[C@@H]1CNC(=O)C1; system = human; conditions = oral, 10 mg once daily, together with: itraconazole; how to read = baseline: compound alone; measurement = Cmax increase; result = 21%
SMILES = O=C(c1cc(Cc2n[nH]c(=O)c3ccccc23)ccc1F)N1CCN(C(=O)C2CC2)CC1; system = human; conditions = oral, dose not given, tablet; measurement = Cmax at steady state; result = 9200 ng/mL
SMILES = CNCc1cc(-c2ccccc2F)n(S(=O)(=O)c2cccnc2)c1; system = human; conditions = 40 mg, single dose, fed, CYP3A victim drug; measurement = Cmax; result = 47.1 ng/mL
SMILES = Nc1cc(C(F)(F)F)c(-c2nc(N3CCOCC3)nc(N3CCOCC3)n2)cn1; tested on = PKN2 (Homo sapiens, UniProt Q16513); assay = enzyme activity; conditions = 10 µM; how to read = baseline: untreated; measurement = remaining activity; result = 100%
SMILES = Cc1nsc(-c2nnc3n2CCN(C(=O)c2ccc(F)cc2)[C@@H]3C)n1; system = human; conditions = oral, 45 mg single dose, fed; measurement = Cmax; result = 343 ng/mL

A few entries again:
SMILES = Cc1nsc(-c2nnc3n2CCN(C(=O)c2ccc(F)cc2)[C@@H]3C)n1; system = human; conditions = oral, 45 mg single dose, fed; measurement = Cmax; result = 343 ng/mL
